Earlier results as cited in several papers.
Protocols differ between the studies behind these lines. Numbers after ± are the reported error.
UniProt P13267, sequence (whole entry, looked up): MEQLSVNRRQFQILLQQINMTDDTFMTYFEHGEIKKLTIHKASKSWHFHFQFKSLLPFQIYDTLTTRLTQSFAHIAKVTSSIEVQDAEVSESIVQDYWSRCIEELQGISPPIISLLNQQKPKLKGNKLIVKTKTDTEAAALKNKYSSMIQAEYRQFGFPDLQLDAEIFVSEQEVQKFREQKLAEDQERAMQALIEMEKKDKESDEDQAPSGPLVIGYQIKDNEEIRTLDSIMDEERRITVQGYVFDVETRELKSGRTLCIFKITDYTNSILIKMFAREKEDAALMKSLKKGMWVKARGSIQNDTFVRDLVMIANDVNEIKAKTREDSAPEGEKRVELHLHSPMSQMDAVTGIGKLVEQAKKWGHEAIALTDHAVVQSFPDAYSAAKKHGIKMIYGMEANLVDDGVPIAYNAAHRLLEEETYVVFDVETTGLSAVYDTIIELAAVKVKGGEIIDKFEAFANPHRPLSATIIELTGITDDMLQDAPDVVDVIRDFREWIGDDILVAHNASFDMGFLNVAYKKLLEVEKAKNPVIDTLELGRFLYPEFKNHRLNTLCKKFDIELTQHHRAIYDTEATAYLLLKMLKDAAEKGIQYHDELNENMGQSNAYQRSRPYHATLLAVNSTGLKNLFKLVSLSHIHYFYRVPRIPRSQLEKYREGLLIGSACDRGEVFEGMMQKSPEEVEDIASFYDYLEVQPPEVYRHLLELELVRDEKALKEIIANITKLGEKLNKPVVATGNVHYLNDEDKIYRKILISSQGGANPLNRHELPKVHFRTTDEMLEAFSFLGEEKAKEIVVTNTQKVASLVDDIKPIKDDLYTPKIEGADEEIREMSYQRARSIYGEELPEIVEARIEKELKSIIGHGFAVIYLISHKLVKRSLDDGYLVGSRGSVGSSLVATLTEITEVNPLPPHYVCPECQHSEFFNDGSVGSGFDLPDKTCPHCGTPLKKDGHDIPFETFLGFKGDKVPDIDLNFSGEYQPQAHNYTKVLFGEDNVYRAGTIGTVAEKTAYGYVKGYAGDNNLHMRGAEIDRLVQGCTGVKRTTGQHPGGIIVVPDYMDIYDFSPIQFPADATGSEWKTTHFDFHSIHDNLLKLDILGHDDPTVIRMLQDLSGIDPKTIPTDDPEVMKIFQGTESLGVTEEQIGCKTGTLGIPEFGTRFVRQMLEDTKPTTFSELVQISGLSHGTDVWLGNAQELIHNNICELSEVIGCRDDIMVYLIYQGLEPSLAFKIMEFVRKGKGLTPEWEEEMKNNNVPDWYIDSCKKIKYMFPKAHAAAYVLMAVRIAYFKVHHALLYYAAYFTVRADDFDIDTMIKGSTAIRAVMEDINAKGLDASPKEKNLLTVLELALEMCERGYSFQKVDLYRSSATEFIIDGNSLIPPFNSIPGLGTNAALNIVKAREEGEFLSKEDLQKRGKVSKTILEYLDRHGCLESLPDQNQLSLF
UniProt Q9JLB5, sequence (whole entry, looked up): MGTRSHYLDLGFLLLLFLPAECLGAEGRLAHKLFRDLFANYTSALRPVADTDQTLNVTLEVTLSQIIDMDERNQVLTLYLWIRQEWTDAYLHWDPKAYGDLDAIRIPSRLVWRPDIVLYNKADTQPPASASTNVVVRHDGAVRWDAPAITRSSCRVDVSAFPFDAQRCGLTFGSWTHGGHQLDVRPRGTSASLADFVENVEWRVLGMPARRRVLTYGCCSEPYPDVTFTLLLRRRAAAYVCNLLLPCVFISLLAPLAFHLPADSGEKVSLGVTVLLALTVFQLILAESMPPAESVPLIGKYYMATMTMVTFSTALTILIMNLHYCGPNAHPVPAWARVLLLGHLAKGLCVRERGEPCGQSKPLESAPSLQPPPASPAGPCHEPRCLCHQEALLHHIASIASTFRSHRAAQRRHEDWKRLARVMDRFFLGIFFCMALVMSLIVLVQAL
UniProt P43144, sequence (whole entry, looked up): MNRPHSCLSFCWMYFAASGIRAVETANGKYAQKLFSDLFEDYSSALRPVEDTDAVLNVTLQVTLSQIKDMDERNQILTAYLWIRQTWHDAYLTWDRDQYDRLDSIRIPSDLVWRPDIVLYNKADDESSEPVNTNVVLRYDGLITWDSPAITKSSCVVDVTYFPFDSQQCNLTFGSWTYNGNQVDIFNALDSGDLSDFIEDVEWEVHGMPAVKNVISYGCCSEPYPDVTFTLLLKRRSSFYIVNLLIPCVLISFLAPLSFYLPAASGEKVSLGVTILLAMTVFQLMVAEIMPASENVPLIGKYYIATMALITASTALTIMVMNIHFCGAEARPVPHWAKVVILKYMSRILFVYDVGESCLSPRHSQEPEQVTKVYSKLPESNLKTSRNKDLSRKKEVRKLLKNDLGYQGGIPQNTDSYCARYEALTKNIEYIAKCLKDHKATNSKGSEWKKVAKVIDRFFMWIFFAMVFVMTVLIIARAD
UniProt Q07343, sequence (whole entry, looked up): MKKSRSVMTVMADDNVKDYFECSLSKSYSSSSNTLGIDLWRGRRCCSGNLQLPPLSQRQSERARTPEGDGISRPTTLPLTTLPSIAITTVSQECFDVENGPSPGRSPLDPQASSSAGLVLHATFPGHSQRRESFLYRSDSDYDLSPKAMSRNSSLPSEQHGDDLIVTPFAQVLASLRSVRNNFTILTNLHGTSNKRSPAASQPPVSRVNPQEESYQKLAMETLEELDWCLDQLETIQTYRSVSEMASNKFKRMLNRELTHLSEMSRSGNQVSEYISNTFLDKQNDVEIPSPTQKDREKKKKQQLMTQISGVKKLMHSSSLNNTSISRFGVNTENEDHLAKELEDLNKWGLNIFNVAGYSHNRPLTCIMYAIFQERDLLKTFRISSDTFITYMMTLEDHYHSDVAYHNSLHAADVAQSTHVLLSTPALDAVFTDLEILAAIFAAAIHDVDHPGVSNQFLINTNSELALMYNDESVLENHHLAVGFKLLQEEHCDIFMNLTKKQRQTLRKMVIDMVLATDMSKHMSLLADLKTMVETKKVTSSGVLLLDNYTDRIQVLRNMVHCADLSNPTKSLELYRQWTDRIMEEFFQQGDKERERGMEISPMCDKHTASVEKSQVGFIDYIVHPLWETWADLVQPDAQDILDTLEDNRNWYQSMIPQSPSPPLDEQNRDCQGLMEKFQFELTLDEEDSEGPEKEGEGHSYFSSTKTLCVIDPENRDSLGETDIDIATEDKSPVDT

The ED50 of `CCC(C(=O)c1ccc2c(c1)OCO2)N(C)C` (centres unmarked) is reported as 11.2 mg/kg (locomotor activity; Swiss-Webster mice; intraperitoneal, no acclimation).
For `OCCN1CCN(CCC=C2c3ccccc3Sc3ccc(C(F)(F)F)cc32)CC1`, “log2 fold change” read 1.15 (MCF7; microarray, measured: WDR45 mRNA; concentration not given; relative to: DMSO).
Under “apparent association rate constant”, `c1c[nH]cn1` is recorded as about 15 M⁻¹ s⁻¹ (horse cytochrome c; pH 7).
`CN1CCc2[nH]c3ccccc3c2CC1` gave an IC50 of 4200 ± 200 nM (Nicotinic acetylcholine receptor alpha9/alpha10 (Rattus norvegicus, UniProt P43144+Q9JLB5); inhibitor; added: 10 µM acetylcholine).
Under “overall response rate”, `CC(C)C[C@H](CN)CC(=O)O` is recorded as under 50% (human neuropathic pain; dose not given).
`O=C(c1cc2cccnc2n1-c1ccc(Cl)c(Cl)c1)N1CC(F)(F)C1` has an IC50 of about 140 nM (PDE4B (Homo sapiens, UniProt Q07343)).
`CC(C)[C@H](N)C(=O)OCCCCCn1cnc2nc(NCc3ccc(Cl)c(Cl)c3)[nH]c(=O)c21` gave a Ki of 250 nM (DNA polymerase III PolC-type (Bacillus subtilis, UniProt P13267); inhibitor; published value).
`O=C(c1ccc(F)cc1)C1CCN(C2Cc3c(cccc3OCCF)CC2O)CC1` (single isomer, unassigned; (-)) gave a Ki of 0.59 nM (VAChT).

Repeated from above:
Under “overall response rate”, `CC(C)C[C@H](CN)CC(=O)O` is recorded as under 50% (human neuropathic pain; dose not given).
